Measurements collected from several papers.
Protocols differ between the studies behind these lines. Numbers after ± are the reported error.
Melanocortin receptor 5: Melanocortin receptor 5 (Mus musculus, UniProt P41149)
Chain of UniProt P41149 (whole entry, looked up): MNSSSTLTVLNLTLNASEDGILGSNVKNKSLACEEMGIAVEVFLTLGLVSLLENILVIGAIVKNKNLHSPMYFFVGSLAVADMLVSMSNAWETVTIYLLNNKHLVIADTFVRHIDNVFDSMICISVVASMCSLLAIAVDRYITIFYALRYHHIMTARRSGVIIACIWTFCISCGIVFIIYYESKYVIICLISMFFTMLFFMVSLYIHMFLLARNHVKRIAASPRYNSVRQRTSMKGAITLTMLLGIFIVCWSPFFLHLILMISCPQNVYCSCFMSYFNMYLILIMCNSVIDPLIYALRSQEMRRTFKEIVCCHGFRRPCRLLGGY
Chain of UniProt P02730 (whole entry, looked up): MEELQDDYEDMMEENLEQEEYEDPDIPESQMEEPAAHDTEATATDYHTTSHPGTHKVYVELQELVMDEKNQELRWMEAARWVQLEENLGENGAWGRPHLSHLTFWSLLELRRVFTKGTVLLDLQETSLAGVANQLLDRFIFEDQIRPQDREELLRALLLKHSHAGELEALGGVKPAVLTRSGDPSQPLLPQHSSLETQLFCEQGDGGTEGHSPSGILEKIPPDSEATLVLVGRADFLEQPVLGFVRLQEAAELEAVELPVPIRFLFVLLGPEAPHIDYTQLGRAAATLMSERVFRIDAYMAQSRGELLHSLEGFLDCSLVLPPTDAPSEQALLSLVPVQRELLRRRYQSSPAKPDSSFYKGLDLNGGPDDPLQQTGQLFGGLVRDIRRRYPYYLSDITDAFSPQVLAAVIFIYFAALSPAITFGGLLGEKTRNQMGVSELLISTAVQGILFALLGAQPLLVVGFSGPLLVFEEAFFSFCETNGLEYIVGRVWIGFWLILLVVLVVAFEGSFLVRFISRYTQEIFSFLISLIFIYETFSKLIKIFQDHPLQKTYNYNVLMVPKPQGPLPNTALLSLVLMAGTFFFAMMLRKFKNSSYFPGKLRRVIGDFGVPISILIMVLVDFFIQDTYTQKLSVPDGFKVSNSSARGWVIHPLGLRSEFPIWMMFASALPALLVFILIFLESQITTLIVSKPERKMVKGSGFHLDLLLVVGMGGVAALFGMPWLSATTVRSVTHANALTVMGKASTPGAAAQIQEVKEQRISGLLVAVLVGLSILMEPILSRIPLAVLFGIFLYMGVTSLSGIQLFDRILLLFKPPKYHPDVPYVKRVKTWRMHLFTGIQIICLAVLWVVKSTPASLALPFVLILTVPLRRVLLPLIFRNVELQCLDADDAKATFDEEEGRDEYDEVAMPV
Chain of UniProt Q9UHM6 (whole entry, looked up): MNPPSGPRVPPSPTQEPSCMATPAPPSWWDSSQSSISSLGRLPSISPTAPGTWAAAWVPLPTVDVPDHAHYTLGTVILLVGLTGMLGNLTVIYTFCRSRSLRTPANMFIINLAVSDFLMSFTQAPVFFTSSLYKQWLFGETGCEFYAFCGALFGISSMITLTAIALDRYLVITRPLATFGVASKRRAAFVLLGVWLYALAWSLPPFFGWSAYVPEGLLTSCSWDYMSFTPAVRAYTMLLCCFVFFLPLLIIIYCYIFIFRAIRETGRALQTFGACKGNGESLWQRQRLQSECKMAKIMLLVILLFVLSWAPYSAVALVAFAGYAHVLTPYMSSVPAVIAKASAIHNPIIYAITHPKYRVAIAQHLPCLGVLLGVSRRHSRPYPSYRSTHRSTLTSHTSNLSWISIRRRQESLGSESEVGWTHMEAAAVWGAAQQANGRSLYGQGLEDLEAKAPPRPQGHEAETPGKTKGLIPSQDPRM
Chain of UniProt Q5S006 (whole entry, looked up): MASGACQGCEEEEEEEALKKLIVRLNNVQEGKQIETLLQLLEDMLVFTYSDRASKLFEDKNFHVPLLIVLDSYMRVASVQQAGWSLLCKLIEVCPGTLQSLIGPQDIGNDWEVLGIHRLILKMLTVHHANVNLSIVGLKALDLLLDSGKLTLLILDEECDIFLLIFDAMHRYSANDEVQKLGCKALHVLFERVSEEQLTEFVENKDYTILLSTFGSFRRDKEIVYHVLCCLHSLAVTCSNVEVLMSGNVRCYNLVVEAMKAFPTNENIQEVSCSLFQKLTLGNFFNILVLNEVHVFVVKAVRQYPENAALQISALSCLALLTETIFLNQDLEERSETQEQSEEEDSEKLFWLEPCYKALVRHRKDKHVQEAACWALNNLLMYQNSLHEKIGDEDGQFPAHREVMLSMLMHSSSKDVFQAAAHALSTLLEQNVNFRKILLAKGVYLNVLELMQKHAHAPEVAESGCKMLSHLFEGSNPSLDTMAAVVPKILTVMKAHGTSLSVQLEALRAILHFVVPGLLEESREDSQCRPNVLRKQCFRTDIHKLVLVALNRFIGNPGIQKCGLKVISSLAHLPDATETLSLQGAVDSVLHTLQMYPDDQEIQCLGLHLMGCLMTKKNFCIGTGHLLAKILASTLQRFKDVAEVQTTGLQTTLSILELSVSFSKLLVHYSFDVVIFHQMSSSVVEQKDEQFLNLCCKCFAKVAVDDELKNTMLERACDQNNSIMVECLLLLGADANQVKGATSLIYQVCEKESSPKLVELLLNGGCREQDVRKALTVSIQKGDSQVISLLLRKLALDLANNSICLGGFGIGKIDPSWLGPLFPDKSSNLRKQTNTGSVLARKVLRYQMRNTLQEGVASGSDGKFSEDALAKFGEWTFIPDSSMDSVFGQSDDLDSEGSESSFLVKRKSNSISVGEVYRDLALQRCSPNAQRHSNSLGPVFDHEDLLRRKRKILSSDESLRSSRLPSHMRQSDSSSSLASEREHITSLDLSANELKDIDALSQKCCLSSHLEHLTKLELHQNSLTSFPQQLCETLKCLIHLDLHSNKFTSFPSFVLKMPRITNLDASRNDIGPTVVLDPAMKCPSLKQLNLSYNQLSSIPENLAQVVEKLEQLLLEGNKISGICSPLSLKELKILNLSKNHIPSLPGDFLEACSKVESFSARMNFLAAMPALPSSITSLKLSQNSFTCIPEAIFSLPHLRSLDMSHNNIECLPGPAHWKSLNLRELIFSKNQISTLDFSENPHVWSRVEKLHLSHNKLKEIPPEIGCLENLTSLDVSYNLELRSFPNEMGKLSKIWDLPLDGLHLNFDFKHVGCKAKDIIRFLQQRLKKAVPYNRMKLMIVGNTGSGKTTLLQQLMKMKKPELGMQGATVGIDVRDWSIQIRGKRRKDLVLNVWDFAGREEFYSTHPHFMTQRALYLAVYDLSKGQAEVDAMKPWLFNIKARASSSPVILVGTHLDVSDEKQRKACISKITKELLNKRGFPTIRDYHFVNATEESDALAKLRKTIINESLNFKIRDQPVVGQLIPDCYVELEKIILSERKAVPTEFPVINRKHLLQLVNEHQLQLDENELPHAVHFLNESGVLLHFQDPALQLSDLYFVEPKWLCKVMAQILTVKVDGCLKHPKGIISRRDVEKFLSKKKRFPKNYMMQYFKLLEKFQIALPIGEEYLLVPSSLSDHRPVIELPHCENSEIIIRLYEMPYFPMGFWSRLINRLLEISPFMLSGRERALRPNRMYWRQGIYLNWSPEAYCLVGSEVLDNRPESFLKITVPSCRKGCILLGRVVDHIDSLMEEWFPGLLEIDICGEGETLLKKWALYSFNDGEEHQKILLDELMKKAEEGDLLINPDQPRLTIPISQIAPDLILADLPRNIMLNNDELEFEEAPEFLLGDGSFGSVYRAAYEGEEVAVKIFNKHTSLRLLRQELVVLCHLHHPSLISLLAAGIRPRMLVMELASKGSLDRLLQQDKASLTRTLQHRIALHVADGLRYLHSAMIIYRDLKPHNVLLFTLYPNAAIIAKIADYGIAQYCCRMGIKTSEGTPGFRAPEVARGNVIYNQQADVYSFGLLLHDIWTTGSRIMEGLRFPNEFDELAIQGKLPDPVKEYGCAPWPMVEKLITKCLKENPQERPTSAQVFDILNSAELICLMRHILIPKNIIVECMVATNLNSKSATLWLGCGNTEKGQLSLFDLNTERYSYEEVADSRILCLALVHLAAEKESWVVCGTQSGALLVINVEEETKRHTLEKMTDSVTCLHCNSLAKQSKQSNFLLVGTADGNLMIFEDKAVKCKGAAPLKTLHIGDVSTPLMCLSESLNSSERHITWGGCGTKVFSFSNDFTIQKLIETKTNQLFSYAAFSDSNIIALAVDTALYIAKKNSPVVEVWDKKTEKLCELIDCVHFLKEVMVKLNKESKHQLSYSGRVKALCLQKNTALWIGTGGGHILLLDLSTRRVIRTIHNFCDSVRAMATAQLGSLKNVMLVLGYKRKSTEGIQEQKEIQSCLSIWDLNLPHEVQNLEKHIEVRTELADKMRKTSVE

`CCOC(=O)[C@]1(CS)N[C@@H](C(=O)O)C(C)(C)S1` has a Ki of 1 ± 0.1 µM (sfhI (Serratia fonticola, UniProt Q9RMI1); enzyme activity, inhibitor; pH 7.5, 30 °C, together with: imipenem substrate).
With `CCCC[C@H](NC(=O)[C@H](CO)NC(=O)[C@H](Cc1ccc(O)cc1)NC(=O)[C@H](CO)NC(C)=O)C(=O)N[C@@H](CCC(=O)O)C(=O)N[C@@H](Cc1c[nH]cn1)C(=O)N[C@H](Cc1ccccc1)C(=O)N[C@@H](CCCNC(=N)N)C(=O)N[C@@H](Cc1c[nH]c2ccccc12)C(=O)NCC(=O)N[C@@H](CCCCN)C(=O)N[C@@H](C)C(=O)N[C@H](C(N)=O)C(C)C` the EC50 was 0.00018 ± 3e-05 µM (Melanocortin receptor 5).
`Nc1ncnc2c1ncn2[C@@H]1O[C@H](COP(=O)(O)OP(=O)(O)O)[C@@H](O)[C@H]1O` gave a Ki of 200 ± 20 µM (Leucine-rich repeat serine/threonine-protein kinase 2 (Lrrk2, Mus musculus, UniProt Q5S006); LRRKtide phosphorylation, inhibitor, radiometric; Ki,e, ATP varied).
With `Nc1ncnc2c1ncn2[C@@H]1O[C@H](COP(=O)(O)OP(=O)(O)O)[C@@H](O)[C@H]1O` the Kd was 0.649 ± 0.006 µM (Sodium/potassium-transporting ATPase subunit alpha-1 (ATP1A1, Sus scrofa, UniProt P05024); binding, radioligand binding; pig membranes; pH 7.7, 0 °C, ionic strength 178 mM, together with: NaCl 119 mM).
`CSCC[C@H](NC(=O)[C@H](CO)NC(=O)[C@H](C)NC(=O)[C@H](CO)NC(C)=O)C(=O)N[C@@H](CCC(=O)O)C(=O)N[C@@H](Cc1c[nH]cn1)C(=O)N[C@@H](Cc1ccccc1)C(=O)N[C@@H](CCCNC(=N)N)C(=O)N[C@@H](Cc1c[nH]c2ccccc12)C(=O)NCC(=O)N[C@@H](CCCCN)C(=O)N1CCC[C@H]1C(=O)N[C@H](C(N)=O)C(C)C` gave an EC50 of 0.0172 ± 0.0084 µM (Melanocortin receptor 5).
For `[I-].[K+]`, the Kd was 44800 µM (SLC4A1 (Homo sapiens, UniProt P02730); 36Cl exchange flux, inhibitor, Dixon plot; human red blood cells; pH 11.6 external, 0 °C, internal Cl 295 mM, CAPS buffer).
With `CSCC[C@H](NC(=O)[C@H](CO)NC(=O)[C@H](Cc1ccc(O)cc1)NC(=O)[C@H](CO)NC(C)=O)C(=O)N[C@@H](CCC(=O)O)C(=O)N[C@@H](Cc1c[nH]cn1)C(=O)N[C@@H](Cc1ccccc1)C(=O)N[C@@H](CCCNC(=N)N)C(=O)N[C@@H](Cc1c[nH]c2ccccc12)C(=O)NCC(=O)N[C@@H](CCCCN)C(=O)N[C@@H](C)C(=O)N[C@H](C(N)=O)C(C)C` the EC50 was 0.03 ± 0.025 µM (Melanocortin receptor 5).
The Kb of `COc1cc(Cl)c(S(=O)(=O)N2CCCCC2)cc1Cl` is reported as 0.0062 ± 0.0011 µM (Melanopsin (OPN4, Homo sapiens, UniProt Q9UHM6); calcium release, antagonist, Schild analysis; CHO cells expressing OPN4; previously light-exposed cells, together with: 9-cis retinal).
`CC1=C(CO)C(=O)O[C@@H]([C@@H](C)[C@H]2CC[C@H]3[C@@H]4C[C@H]5O[C@]56[C@@H](O)C=CC(=O)[C@]6(C)[C@H]4CC[C@]23C)C1` gave an IC50 of 4.47 µM (C2C12 myotubes; NF-κB reporter gene, inhibitor; 24 h, together with: TNF-α 10 ng/mL).

For quick reference, copied from above:
With `CSCC[C@H](NC(=O)[C@H](CO)NC(=O)[C@H](Cc1ccc(O)cc1)NC(=O)[C@H](CO)NC(C)=O)C(=O)N[C@@H](CCC(=O)O)C(=O)N[C@@H](Cc1c[nH]cn1)C(=O)N[C@@H](Cc1ccccc1)C(=O)N[C@@H](CCCNC(=N)N)C(=O)N[C@@H](Cc1c[nH]c2ccccc12)C(=O)NCC(=O)N[C@@H](CCCCN)C(=O)N[C@@H](C)C(=O)N[C@H](C(N)=O)C(C)C` the EC50 was 0.03 ± 0.025 µM (Melanocortin receptor 5).
